# Measured values pooled from the literature.
# Every numbered part comes from another study and shows a few of its results, in no order.
# Sequence of UniProt P30291 (whole entry, looked up): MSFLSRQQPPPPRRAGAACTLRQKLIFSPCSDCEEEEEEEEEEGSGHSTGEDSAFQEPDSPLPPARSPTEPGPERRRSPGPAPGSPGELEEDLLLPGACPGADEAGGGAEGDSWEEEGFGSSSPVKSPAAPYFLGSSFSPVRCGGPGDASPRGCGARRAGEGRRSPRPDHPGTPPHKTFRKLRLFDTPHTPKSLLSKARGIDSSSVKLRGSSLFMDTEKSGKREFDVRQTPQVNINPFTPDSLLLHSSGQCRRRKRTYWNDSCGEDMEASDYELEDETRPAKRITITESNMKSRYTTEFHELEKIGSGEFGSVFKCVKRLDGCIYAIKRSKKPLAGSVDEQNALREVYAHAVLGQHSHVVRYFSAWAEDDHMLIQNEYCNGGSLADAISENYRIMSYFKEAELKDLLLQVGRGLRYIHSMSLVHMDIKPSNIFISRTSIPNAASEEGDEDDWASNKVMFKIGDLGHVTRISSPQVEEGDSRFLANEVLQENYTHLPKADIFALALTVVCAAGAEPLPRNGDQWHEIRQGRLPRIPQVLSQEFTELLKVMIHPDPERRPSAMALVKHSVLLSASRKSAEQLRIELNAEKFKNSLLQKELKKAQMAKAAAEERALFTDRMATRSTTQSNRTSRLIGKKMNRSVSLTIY
# Sequence of UniProt Q9NSY1 (whole entry, looked up): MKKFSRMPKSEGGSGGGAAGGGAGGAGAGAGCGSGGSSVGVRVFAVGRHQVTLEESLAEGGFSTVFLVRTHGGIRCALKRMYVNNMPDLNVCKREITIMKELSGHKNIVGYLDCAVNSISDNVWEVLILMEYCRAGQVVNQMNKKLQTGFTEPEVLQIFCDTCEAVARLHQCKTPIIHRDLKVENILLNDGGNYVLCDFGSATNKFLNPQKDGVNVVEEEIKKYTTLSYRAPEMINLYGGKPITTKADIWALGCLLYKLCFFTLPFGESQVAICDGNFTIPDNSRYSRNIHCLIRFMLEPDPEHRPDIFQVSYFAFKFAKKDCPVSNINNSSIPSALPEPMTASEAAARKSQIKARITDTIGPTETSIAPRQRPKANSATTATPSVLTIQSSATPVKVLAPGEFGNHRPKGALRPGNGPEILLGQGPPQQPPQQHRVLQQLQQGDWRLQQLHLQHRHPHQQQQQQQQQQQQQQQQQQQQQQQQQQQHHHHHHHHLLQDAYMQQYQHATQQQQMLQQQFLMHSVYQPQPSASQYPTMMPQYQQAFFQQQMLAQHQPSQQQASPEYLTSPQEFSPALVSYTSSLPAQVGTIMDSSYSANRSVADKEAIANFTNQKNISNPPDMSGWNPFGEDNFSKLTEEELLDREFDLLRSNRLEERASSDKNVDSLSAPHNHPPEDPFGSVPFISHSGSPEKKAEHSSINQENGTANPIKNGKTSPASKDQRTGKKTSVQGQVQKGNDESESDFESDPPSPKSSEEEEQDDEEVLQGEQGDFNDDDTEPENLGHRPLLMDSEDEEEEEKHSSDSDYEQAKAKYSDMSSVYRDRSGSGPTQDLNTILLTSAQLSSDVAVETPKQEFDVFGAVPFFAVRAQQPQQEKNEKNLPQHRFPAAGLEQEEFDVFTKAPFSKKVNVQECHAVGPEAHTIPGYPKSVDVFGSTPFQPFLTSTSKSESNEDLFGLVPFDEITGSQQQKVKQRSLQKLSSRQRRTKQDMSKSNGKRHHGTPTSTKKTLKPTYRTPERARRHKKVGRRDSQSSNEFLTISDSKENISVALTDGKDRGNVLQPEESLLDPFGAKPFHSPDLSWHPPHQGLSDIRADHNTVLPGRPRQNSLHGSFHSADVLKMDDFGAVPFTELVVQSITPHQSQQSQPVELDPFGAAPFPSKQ
# Sequence of UniProt P08631 (whole entry, looked up): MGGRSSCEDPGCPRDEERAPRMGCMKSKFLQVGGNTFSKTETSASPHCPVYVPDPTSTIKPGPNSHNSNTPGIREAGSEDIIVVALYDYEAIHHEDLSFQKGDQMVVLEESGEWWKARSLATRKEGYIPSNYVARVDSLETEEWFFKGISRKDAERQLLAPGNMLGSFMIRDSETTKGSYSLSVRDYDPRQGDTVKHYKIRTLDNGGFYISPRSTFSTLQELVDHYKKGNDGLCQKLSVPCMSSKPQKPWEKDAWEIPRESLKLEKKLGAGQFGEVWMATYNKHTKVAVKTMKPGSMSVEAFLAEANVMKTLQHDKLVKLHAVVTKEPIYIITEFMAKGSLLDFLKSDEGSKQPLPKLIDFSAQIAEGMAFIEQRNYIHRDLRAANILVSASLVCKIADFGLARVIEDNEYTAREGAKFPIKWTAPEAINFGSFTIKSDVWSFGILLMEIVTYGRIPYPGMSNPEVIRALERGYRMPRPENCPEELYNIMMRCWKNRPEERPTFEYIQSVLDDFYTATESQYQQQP
# Sequence of UniProt Q9H2K8 (whole entry, looked up): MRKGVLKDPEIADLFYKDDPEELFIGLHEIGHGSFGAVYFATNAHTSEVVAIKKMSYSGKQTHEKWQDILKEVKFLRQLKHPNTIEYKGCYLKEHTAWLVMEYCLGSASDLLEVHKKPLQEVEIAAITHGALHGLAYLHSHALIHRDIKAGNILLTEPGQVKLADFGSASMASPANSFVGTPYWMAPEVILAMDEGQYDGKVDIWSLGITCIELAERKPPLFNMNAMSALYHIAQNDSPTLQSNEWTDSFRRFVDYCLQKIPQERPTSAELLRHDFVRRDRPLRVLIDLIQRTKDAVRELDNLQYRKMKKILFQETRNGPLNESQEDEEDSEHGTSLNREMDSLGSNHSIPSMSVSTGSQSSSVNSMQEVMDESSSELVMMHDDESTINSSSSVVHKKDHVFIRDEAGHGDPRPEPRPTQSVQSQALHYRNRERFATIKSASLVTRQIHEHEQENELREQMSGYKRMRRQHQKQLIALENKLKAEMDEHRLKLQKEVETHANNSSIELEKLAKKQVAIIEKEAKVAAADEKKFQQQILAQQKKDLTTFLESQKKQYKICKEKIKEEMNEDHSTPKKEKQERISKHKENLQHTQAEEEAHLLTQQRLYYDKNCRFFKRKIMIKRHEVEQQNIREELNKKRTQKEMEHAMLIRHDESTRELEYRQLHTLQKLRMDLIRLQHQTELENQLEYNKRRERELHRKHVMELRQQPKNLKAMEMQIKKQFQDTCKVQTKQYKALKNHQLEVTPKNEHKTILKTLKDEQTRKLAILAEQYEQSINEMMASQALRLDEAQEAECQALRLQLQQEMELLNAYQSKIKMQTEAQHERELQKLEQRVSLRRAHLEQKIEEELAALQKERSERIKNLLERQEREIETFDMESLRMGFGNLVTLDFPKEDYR
# Sequence of UniProt P42681 (whole entry, looked up): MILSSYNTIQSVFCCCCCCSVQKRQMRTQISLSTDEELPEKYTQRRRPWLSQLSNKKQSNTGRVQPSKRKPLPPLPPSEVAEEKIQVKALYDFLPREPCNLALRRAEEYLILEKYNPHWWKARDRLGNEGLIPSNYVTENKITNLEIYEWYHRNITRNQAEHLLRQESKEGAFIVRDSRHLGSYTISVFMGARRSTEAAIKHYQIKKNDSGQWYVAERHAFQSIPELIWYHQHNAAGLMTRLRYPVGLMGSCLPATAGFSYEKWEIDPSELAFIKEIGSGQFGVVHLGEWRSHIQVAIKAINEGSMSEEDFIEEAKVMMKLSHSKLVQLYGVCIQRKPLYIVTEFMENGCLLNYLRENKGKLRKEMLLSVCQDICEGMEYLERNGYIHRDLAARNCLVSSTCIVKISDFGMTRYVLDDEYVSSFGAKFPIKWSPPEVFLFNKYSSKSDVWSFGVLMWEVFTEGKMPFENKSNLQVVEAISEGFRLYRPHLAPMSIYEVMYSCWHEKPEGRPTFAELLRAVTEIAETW
# Sequence of UniProt O00238 (whole entry, looked up): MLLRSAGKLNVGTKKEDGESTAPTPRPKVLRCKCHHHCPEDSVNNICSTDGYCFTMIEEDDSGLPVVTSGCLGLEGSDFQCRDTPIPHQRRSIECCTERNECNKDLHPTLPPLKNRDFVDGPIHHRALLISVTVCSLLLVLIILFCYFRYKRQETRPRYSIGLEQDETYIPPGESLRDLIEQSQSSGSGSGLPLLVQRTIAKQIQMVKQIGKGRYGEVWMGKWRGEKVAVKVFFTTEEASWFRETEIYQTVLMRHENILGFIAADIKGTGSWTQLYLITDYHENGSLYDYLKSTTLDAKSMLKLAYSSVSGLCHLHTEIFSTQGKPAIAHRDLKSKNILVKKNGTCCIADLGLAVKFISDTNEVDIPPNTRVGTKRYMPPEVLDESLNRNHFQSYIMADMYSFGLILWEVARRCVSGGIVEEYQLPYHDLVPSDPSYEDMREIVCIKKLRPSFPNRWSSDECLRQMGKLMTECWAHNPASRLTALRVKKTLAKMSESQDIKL

# Series 1
# Cell line: mouse MPNST tumor cells
# Technique: high-content nuclear imaging
# Refers to: cell number
# Concentration: 10 µM
# Time: 12 h
# Notes: mean of 2 replicates
# Baseline: plate mean
# Direction: higher = more cells
Structure (SMILES),nuclei count
CC1(C)S[C@@H]2[C@H](NC(=O)Cc3ccccc3)C(=O)N2[C@H]1C(=O)O,1.5 z-score
COc1cc(NC(C)CCCN)c2ncccc2c1 (stereo not shown),-2.1 z-score
O=C(O)Cc1ccc(-c2ccccc2)cc1,1.46 z-score
CN1CC(=O)N=C1NC(=O)Nc1cccc(Cl)c1,-0.37 z-score
CN(C)CCOC(c1ccc(Cl)cc1)c1ccccn1 (stereo not shown),2.9 z-score

# Series 2
# Species: mouse
# Sample: microsomes or S9
# Concentration: 2 µM
# Time: 0.5 h
SMILES,remaining compound
Cc1ccc(C2=C(c3ccccc3)c3cc(OCCN4CCN(S(C)(=O)=O)CC4)ccc3C2=O)cc1,46.6%
CN(c1cccc(NC(=O)C(C)(C)C)c1)S(C)(=O)=O,61.5%
CCC(C)Nc1c(C(C)=O)c(=O)[nH]c2c(C(=O)OC)scc12 (stereo not shown),3.07%
CCOCCCn1nnc2c(O)nc(C(=O)NCc3cccc(Cl)c3)nc21,29.6%
Cc1ccc(C2c3cccn3-c3sc4c(c3CN2C(=O)Nc2ccc(F)cc2F)CCCC4)cc1 (stereo not shown),29.2%
CC(C)n1ncc2c1N=C(O)CC2C1CCCCC1 (stereo not shown),3.87%

# Series 3
# Structure (SMILES): CN1CCN(C(=O)c2ccc(NC(=O)Nc3ccc(N(C)c4ccnc(Nc5ccc(CS(C)(=O)=O)cc5)n4)cc3)cc2)CC1
# Concentration: 1 µM
target,technique,remaining activity [%]
"KIT (Homo sapiens, UniProt P10721)",,0
"MTOR (Homo sapiens, UniProt P42345)",biochemical,100
"MAP3K19 (Homo sapiens, UniProt Q56UN5)",,0

# Series 4
# Observed: AlphaScreen signal
# Technique: AlphaScreen counter screen
# Sample: His6 peptide without bromodomain
# Concentration: 50 µM
# Notes: assay interference check
Structure (SMILES),inhibition
Cn1c(=O)c(F)c(Nc2ccc(I)cc2F)c2c(=O)n(C[C@@H](O)CO)cnc21,18.8%
CCN1C(=CC(C)=O)Sc2ccc(OC)cc21,8.6%
O=C1NC(=NCc2cccs2)S/C1=C\c1ccc2ncccc2c1,19.2%
CCCS(=O)(=O)Nc1ccc(F)c(C(=O)c2c[nH]c3ncc(-c4ccc(Cl)cc4)cc23)c1F,31.1%

# Series 5
# Compound: CC(=O)C1=C(C)N(c2cccc(C(F)(F)F)c2)C(=O)N[C@@H]1c1ccc(C#N)nc1
# Concentration: 1 µM
target,observed,technique,remaining binding [%]
"STK32C (Homo sapiens, UniProt Q86UX6)",cell-free assay,competition with immobilised ligand,94.1
"SRC (Homo sapiens, UniProt P12931)",cell-free assay,competition with immobilised ligand,95.9
"Aurora kinase C (AURKC, Homo sapiens, UniProt Q9UQB9)",cell-free assay,competition with immobilised ligand,100
"CDK19 (Homo sapiens, UniProt Q9BWU1)",,competition binding,96.9
"CSNK1A1L (Homo sapiens, UniProt Q8N752)",cell-free assay,competition with immobilised ligand,100
"EGFR (Homo sapiens, UniProt P00533, del746-750)",cell-free assay,competition with immobilised ligand,78.6
"BMP2K (Homo sapiens, UniProt Q9NSY1)",cell-free assay,competition with immobilised ligand,100
"TAOK3 (Homo sapiens, UniProt Q9H2K8)",cell-free assay,competition with immobilised ligand,73
"MAP2K1 (Homo sapiens, UniProt Q02750)",cell-free assay,competition with immobilised ligand,93.3
"EGFR (Homo sapiens, UniProt P00533, L858R)",cell-free assay,competition with immobilised ligand,80.8
"BMPR1B (Homo sapiens, UniProt O00238)",cell-free assay,competition with immobilised ligand,74.2
"WEE1 (Homo sapiens, UniProt P30291)",cell-free assay,competition with immobilised ligand,100
"CDK17 (Homo sapiens, UniProt Q00537)",cell-free assay,competition with immobilised ligand,100
"HCK (Homo sapiens, UniProt P08631)",cell-free assay,competition with immobilised ligand,87.7
"TXK (Homo sapiens, UniProt P42681)",binding,competition with immobilised ligand,100
"MAPK11 (Homo sapiens, UniProt Q15759)",cell-free assay,competition with immobilised ligand,100
